Experimental data of several laboratories.
Each line is one published result; not all experiments were run side by side. ± marks the error that the study gave. Converted amounts (≈) assume the structure as drawn.
Organism: Pseudomonas aeruginosa

CC[C@H](C)[C@H](NC(=O)[C@H](Cc1c[nH]cn1)NC(=O)[C@H](CCCCNC(=O)[C@@H](NC(=O)[C@H](CCCCN)NC(=O)CSC[C@H](NC(=O)[C@H](Cc1ccccc1)NC(=O)[C@H](CCCCNC(=O)[C@H](CC(C)C)NC(=O)[C@@H]1CCCN1C(=O)[C@H](CCCCN)NC(=O)CCS[C@@H]1O[C@H](CO)[C@H](O)[C@H](O)[C@H]1O)NC(=O)[C@H](CC(C)C)NC(=O)[C@@H]1CCCN1C(=O)[C@H](CCCCN)NC(=O)CCS[C@@H]1O[C@H](CO)[C@H](O)[C@H](O)[C@H]1O)C(N)=O)[C@@H](C)CC)NC(=O)[C@@H](NC(=O)[C@H](CCCCN)NC(=O)CSC[C@H](NC(=O)[C@H](Cc1ccccc1)NC(=O)[C@H](CCCCNC(=O)[C@H](CC(C)C)NC(=O)[C@@H]1CCCN1C(=O)[C@H](CCCCN)NC(=O)CCS[C@@H]1O[C@H](CO)[C@H](O)[C@H](O)[C@H]1O)NC(=O)[C@H](CC(C)C)NC(=O)[C@@H]1CCCN1C(=O)[C@H](CCCCN)NC(=O)CCS[C@@H]1O[C@H](CO)[C@H](O)[C@H](O)[C@H]1O)C(N)=O)[C@@H](C)CC)C(N)=O: biofilm dispersal “increased” (PAO1; 50 µM, 24 h).
The MBIC of CC(C)C[C@@H](NC(=O)[C@@H](CC(C)C)NC(=O)[C@@H](CCCCN)NC(=O)[C@@H](CCCCNC(=O)[C@@H](CC(C)C)NC(=O)[C@@H](CC(C)C)NC(=O)[C@@H](CCCCNC(=O)[C@@H](CC(C)C)NC(=O)[C@@H](CCCCN)NC(=O)[C@@H](CCCCNC(=O)[C@@H](CC(C)C)NC(=O)[C@H](N)CCCCN)NC(=O)[C@@H](CC(C)C)NC(=O)[C@H](N)CCCCN)NC(=O)[C@@H](CC(C)C)NC(=O)[C@@H](CCCCN)NC(=O)[C@@H](CCCCNC(=O)[C@@H](CC(C)C)NC(=O)[C@H](N)CCCCN)NC(=O)[C@@H](CC(C)C)NC(=O)[C@H](N)CCCCN)NC(=O)[C@@H](CC(C)C)NC(=O)[C@@H](CC(C)C)NC(=O)[C@@H](CCCCNC(=O)[C@@H](CC(C)C)NC(=O)[C@@H](CCCCN)NC(=O)[C@@H](CCCCNC(=O)[C@@H](CC(C)C)NC(=O)[C@H](N)CCCCN)NC(=O)[C@@H](CC(C)C)NC(=O)[C@H](N)CCCCN)NC(=O)[C@@H](CC(C)C)NC(=O)[C@@H](CCCCN)NC(=O)[C@@H](CCCCNC(=O)[C@@H](CC(C)C)NC(=O)[C@H](N)CCCCN)NC(=O)[C@@H](CC(C)C)NC(=O)[C@H](N)CCCCN)C(N)=O is reported as 8 µg/mL (biofilm formation; PAO1; 24 h, 37 °C).
COc1ccccc1N1CCN(Cn2nc(C34CC5CC(CC(C5)C3)C4)n(-c3ccccc3)c2=S)CC1 — result for “inhibition zone diameter”: 12 mm (IFO 3448; 200 µg/disc, 24 h, 37 °C).
With NS(=O)(=O)c1ccc(-n2c(SCC(=O)Nc3ccc([N+](=O)[O-])cc3[N+](=O)[O-])nc3ccccc3c2=O)cc1 the inhibition zone was 13 mm (microbial growth, well diffusion; ATCC27853; 500 µg/mL, 24 h).
For Clc1ccc(CSc2nnc(C34CC5CC(CC(C5)C3)C4)n2-c2ccccc2)cc1, “inhibition zone diameter” read less than 10 mm (IFO 3448; 200 µg/disc, 24 h, 37 °C).
O=C(Cc1ccc(Br)cc1)N[C@H]1CCOC1=O has an elastase inhibition of less than 25% (elastin-Congo red; PAO1 wild type; 100 µM).
CCCCCCCCCCCCCC(=O)NCCCC[C@H](N)C(=O)N[C@@H](CCCCN)C(=O)N[C@@H](CCCCN)C(=O)N[C@@H](CCCCN)C(=O)N[C@@H](CCCCN)C(=O)N[C@@H](CCCCN)C(N)=O gave an MBC of 128 µg/mL (≈ 128 µM) (ATCC 27853).
Under “MIC geometric mean”, CC(=O)N[C@H](CCCCN)C(=O)N[C@H](CC(C)C)C(=O)N[C@H](CCCCN)C(=O)N[C@H](CO)C(=O)N[C@H](CC(C)C)C(=O)N[C@H](CC(C)C)C(=O)N[C@H](CCCCN)C(=O)N[C@@H](C(=O)N[C@H](CC(C)C)C(=O)N[C@H](CO)C(=O)N[C@H](CCCCN)C(=O)N[C@H](C)C(=O)N[C@H](CCCCN)C(=O)N[C@H](CCCCN)C(=O)N[C@H](CCCCN)C(=O)N[C@H](CC(C)C)C(=O)N[C@H](CC(C)C)C(=O)N[C@H](CCCCN)C(=O)N[C@@H](C(=O)N[C@H](C)C(=O)N[C@H](CC(C)C)C(=O)N[C@H](CCCCN)C(=O)N[C@H](C)C(=O)N[C@H](CC(C)C)C(=O)N[C@H](CO)C(=O)N[C@H](CCCCN)C(N)=O)[C@H](C)O)[C@H](C)O is recorded as 1 µM (≈ 2.92 µg/mL) (six isolates; 24 h, 37 °C).
With O=c1cc(-c2ccccc2)oc2cc(O)cc([O][Ga+][O]c3cc(O)cc4oc(-c5ccccc5)cc(=O)c34)c12 the inhibition was 67% (pyocyanin secretion; 0.08 µM, 20 h).
Under “concentration abolishing (p)ppGpp accumulation”, CC[C@@H](C)[C@@H](NC(=O)[C@@H](CCCNC(=N)N)NC(=O)[C@@H](CCCNC(=N)N)NC(=O)[C@@H](Cc1c[nH]c2ccccc12)NC(=O)[C@@H](CCC(N)=O)NC(=O)[C@H](N)C(C)C)C(=O)N[C@H](CCCNC(=N)N)C(=O)N[C@@H](C(=O)N[C@H](Cc1c[nH]c2ccccc12)C(=O)N[C@@H](C(=O)N[C@@H](C(=O)N[C@H](CCCNC(=N)N)C(N)=O)[C@H](C)CC)C(C)C)C(C)C is recorded as 1 µg/mL (added: serine hydroxamate 500 µM).
For CC[C@@H](C)[C@@H](NC(=O)[C@@H](C)NC(=O)[C@@H](CCCCN)NC(=O)[C@@H](CC(C)C)NC(=O)[C@@H](CC(C)C)NC(=O)[C@H](NC(=O)[C@@H](CCCCN)NC(=O)[C@@H](CC(C)C)NC(=O)[C@@H](CCCCN)NC(=O)[C@@H](CCCCN)NC(=O)[C@@H](CCCCN)NC(=O)[C@@H](CCCCN)NC(=O)[C@@H](C)NC(=O)[C@@H](CCCCN)NC(=O)[C@@H](CO)NC(=O)[C@@H](Cc1ccccc1)NC(=O)[C@H](NC(=O)[C@@H](CCCCN)NC(=O)[C@@H](CC(C)C)NC(=O)[C@@H](Cc1ccccc1)NC(=O)[C@@H](CO)NC(=O)[C@@H](CCCCN)NC(=O)[C@@H](Cc1c[nH]c2ccccc12)NC(=O)[C@@H](CCCCN)NC(C)=O)[C@H](C)O)[C@H](C)O)C(=O)N[C@H](CO)C(=O)N[C@H](CCCCN)C(N)=O, “MIC geometric mean” read 2.5 µM (≈ 7.8 µg/mL) (six isolates).
CCCCCCCCCC1CC2CCCC3CC(CCCCCCCCC)NC(=N1)N23 (centres unmarked) — result for antibacterial activity: “active” (ATCC 27853; concentration not given).
CNC1=C([N+](=O)[O-])C2(C(=O)Nc3ccccc32)C2=C(CCCC2=O)O1 (centres unmarked) has an inhibition of 67.3% (growth; MTCC 2453; 250 µg/mL, 24 h).
CCCCCCCCCCCCCCCC(=O)NCCCC[C@H](N)C(=O)N[C@@H](CCCCN)C(=O)N[C@@H](CCCCN)C(=O)N[C@@H](CCCCN)C(=O)N[C@@H](CCCCN)C(=O)N[C@@H](CCCCN)C(N)=O gave an MBC of 128 µg/mL (≈ 125 µM) (ATCC 27853).
Under “MIC of colistin”, Oc1cc(C(F)(F)F)ccc1-c1nc2c(C(F)(F)F)cc(C(F)(F)F)cc2[nH]1 is recorded as 0.25 µg/mL (colistin potentiator; TRPA 162, colistin-resistant; 5 µM).
CC[C@@H](C)[C@@H](NC(=O)[C@@H](C)NC(=O)[C@@H](CCCCN)NC(=O)[C@@H](CC(C)C)NC(=O)[C@@H](C)NC(=O)[C@H](NC(=O)[C@@H](CCCCN)NC(=O)[C@@H](CC(C)C)NC(=O)[C@H](NC(=O)[C@@H](CCCCN)NC(=O)[C@@H](CCCCN)NC(=O)[C@@H](CCCCN)NC(=O)[C@@H](C)NC(=O)[C@@H](CCCCN)NC(=O)[C@@H](CO)NC(=O)[C@@H](Cc1ccccc1)NC(=O)[C@H](NC(=O)[C@@H](CCCCN)NC(=O)[C@@H](CC(C)C)NC(=O)[C@@H](Cc1ccccc1)NC(=O)[C@@H](CO)NC(=O)[C@@H](CCCCN)NC(=O)[C@@H](Cc1c[nH]c2ccccc12)NC(=O)[C@@H](CCCCN)NC(C)=O)[C@H](C)O)C(C)C)[C@H](C)O)C(=O)N[C@H](CO)C(=O)N[C@H](CCCCN)C(N)=O: “MIC geometric mean” 1.6 µM (≈ 4.88 µg/mL) (six isolates).
With CCOC(=O)c1cnc(N/N=C/c2c(-c3ccc(Br)cc3)nc3ncccn23)s1 the inhibition zone was 12 mm (microbial growth, well diffusion; ATCC27853; 100 µg/mL).
Under “zone of inhibition”, Cc1cc(O)cc2c1C(=O)c1c(cc3oc(=O)cc(-c4ccc(Cl)cc4)c3c1O)C2=O is recorded as 8 mm (MTCC 2453; 100 µg/disc).
Under “reduction in biofilm formation”, CCCCCCCCCc1nc2cc(Cl)ccc2c(=O)n1CCCN is recorded as roughly 50% (confocal microscopy; PAO1, RPMI; 100 µM, 24 h).
Cn1c(C23CC4CC(CC(C4)C2)C3)nn(CCN2CCCC2)c1=S — result for “inhibition zone diameter”: less than 10 mm (IFO 3448; 200 µg/disc, 24 h, 37 °C).
C=C1CC(OC(=O)C(C)(O)CCl)C2C(=C)C(=O)OC2C2C1CC(O)C2(O)CCl (centres unmarked) has an inhibition zone of 8 ± 1.2 mm (concentration not given).
Under “free AUC/MIC for 1-log kill”, COc1ccc(-c2ccn(CC[C@](C)(C(=O)NO)S(C)(=O)=O)c(=O)c2)c(F)c1 is recorded as 7.25 (PA-1950, neutropenic mice, thigh infection; dose not given, 24 h).
For Cc1c2c(cc3oc(=O)cc(-c4ccc(O)cc4)c13)C(=O)c1cccc(O)c1C2=O, “zone of inhibition” read less than 8 mm (MTCC 2453; 100 µg/disc).
Under “MIC geometric mean”, CC[C@@H](C)[C@@H](NC(=O)[C@@H](C)NC(=O)[C@@H](CCCCN)NC(=O)[C@@H](CC(C)C)NC(=O)[C@@H](CC(C)C)NC(=O)[C@H](NC(=O)[C@@H](CCCCN)NC(=O)[C@@H](CC(C)C)NC(=O)[C@@H](C)NC(=O)[C@@H](CCCCN)NC(=O)[C@@H](CCCCN)NC(=O)[C@@H](CCCCN)NC(=O)[C@@H](C)NC(=O)[C@@H](CCCCN)NC(=O)[C@@H](CO)NC(=O)[C@@H](Cc1ccccc1)NC(=O)[C@H](NC(=O)[C@@H](CCCCN)NC(=O)[C@@H](CC(C)C)NC(=O)[C@@H](Cc1ccccc1)NC(=O)[C@@H](CO)NC(=O)[C@@H](CCCCN)NC(=O)[C@@H](Cc1c[nH]c2ccccc12)NC(=O)[C@@H](CCCCN)NC(C)=O)[C@H](C)O)[C@H](C)O)C(=O)N[C@H](CO)C(=O)N[C@H](CCCCN)C(N)=O is recorded as 2.3 µM (≈ 7.05 µg/mL) (six isolates).
For O=c1cc(-c2ccc(O)cc2)oc2cc(O)cc([O][Ga+][O]c3cc(O)cc4oc(-c5ccc(O)cc5)cc(=O)c34)c12, the biofilm inhibition was roughly 50% (crystal violet; 0.08 µM, 48 h, static; baseline: negative control).
For COc1c2c(cc3oc(=O)cc(-c4ccc(Cl)cc4)c13)C(=O)c1cc(C)cc(O)c1C2=O, “zone of inhibition” read 8 mm (MTCC 2453; 100 µg/disc).
Cc1cc([N+](=O)[O-])ccc1NC(=O)CSc1nc2ccccc2c(=O)n1-c1ccc(S(N)(=O)=O)cc1 gave an MBC of 4.5 µg/mL (≈ 8.56 µM) (microbial killing; ATCC27 ATCC27853; 24 h).
For CC[C@H](C)[C@H](NC(=O)[C@H](Cc1c[nH]cn1)NC(=O)[C@H](CCCCNC(=O)[C@@H](NC(=O)[C@H](CCCCN)NC(=O)[C@H](CCCCNC(=O)[C@H](CC(C)C)NC(=O)[C@@H]1CCCN1C(=O)[C@H](CCCCN)NC(=O)CSCCCCCCO[C@H]1O[C@@H](C)[C@@H](O)[C@@H](O)[C@@H]1O)NC(=O)[C@H](CC(C)C)NC(=O)[C@@H]1CCCN1C(=O)[C@H](CCCCN)NC(=O)CSCCCCCCO[C@H]1O[C@@H](C)[C@@H](O)[C@@H](O)[C@@H]1O)[C@@H](C)CC)NC(=O)[C@@H](NC(=O)[C@H](CCCCN)NC(=O)[C@H](CCCCNC(=O)[C@H](CC(C)C)NC(=O)[C@@H]1CCCN1C(=O)[C@H](CCCCN)NC(=O)CSCCCCCCO[C@H]1O[C@@H](C)[C@@H](O)[C@@H](O)[C@@H]1O)NC(=O)[C@H](CC(C)C)NC(=O)[C@@H]1CCCN1C(=O)[C@H](CCCCN)NC(=O)CSCCCCCCO[C@H]1O[C@@H](C)[C@@H](O)[C@@H](O)[C@@H]1O)[C@@H](C)CC)C(N)=O, “concentration for 100% biofilm dispersal” read 20 µM (PAO1; added: tobramycin 0.1 µM).
CC(=O)[O-].O.O.[O-]c1ccc(Br)cc1C=NCCN1CCOCC1.[Zn+2]: “inhibition zone diameter” 17 mm (20 µL of 100 µM per disc).

For quick reference, copied from above:
For O=c1cc(-c2ccc(O)cc2)oc2cc(O)cc([O][Ga+][O]c3cc(O)cc4oc(-c5ccc(O)cc5)cc(=O)c34)c12, the biofilm inhibition was roughly 50% (crystal violet; 0.08 µM, 48 h, static; baseline: negative control).
For COc1c2c(cc3oc(=O)cc(-c4ccc(Cl)cc4)c13)C(=O)c1cc(C)cc(O)c1C2=O, “zone of inhibition” read 8 mm (MTCC 2453; 100 µg/disc).
Cc1cc([N+](=O)[O-])ccc1NC(=O)CSc1nc2ccccc2c(=O)n1-c1ccc(S(N)(=O)=O)cc1 gave an MBC of 4.5 µg/mL (≈ 8.56 µM) (microbial killing; ATCC27 ATCC27853; 24 h).
